# Published values collected from several papers.
# Each numbered part is a random draw from the data of one study; scales do not carry over between parts. Substitutions count along the parent as printed.

# Series 1 — target: CCNB1, cyclin fold, Cln2 fusion (human); method: yeast growth competition, sequencing; matrix: yeast; setting: weak parent motif; baseline: not given; reading: higher = stronger binding
# Starting sequence: GMNC docking peptide (human); KNAKRNLSSEFAN
Change,normalised enrichment score
K4Y,0.416
A3K,0.268
K4C,0.344
A12M,-0.161
E10F,0.0853
S9Q,0.0318
L7S,0.000937
N6Q,0.303
F11G,0.322
K4W,0.0601
S8A,-0.067
N2I,0.297
K4G,0.331
L7Q,-0.0373
L7F,0.427
N2S,0.0988
L7M,0.246
K4A,-0.095
S9Y,0.236
L7H,0.418
K4V,0.334
N6S,0.183
E10Q,0.378
N6K,0.248
E10L,-0.666

# Series 2 — method: RNA Bind-n-Seq; molecule type: RNA; matrix: in vitro; concentration: 365 nM; baseline: no-protein control; reading: higher = stronger binding
# Target: RNA binding protein fox-1 homolog 2, RRM domain, GST-SBP tag (RBFOX2, Homo sapiens, UniProt O43251-10, residues 100-194)
# Setting: natural RNA segment, single round, ends assumed
# Target sequence (chain): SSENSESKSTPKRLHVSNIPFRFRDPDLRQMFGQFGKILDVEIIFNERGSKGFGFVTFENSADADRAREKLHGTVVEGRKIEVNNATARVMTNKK
Sequence,RBNS enrichment (R)
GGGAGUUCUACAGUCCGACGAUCCCAAGGGCGUUCACUGCGACCUGGGAGUAAACAGGGUGUCGCUGCCCUGUGAGAGGAAGAUGGGGCCACCCCAGGGCUCCCAAUGCACUCGGAAGUCAGCAGUACCAGGAUGGAAUUCUCGGGUGCCAA,0.219
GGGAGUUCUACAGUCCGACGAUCAUUAAGCCUUCCAAGUCCCCAGCCAGGACCAUAGCUCCCCUGACCCUUUCACUGCCCCAGUGGUGUAAGUGGAGGGCCAGGGACCCUGCAAUUGUACCUGCUCCUCAUCCUGGAAUUCUCGGGUGCCAA,0.161
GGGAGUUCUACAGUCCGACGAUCAAGAGUAGGAUUAACACAGGGGAAGUCUUGAGAAGGAGUUUUGAUUCUUUUAUAUGUUUUUAAAAAAAAGCUUAAGAAACAUUGCUUUAAAAAGGAAGGAAAAAAAAUACUGGAAUUCUCGGGUGCCAA,0.716
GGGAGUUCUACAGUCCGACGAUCUUCUGUGAGAAGUGUUCUUAAACUUAUUAAGUGUCUAAACUAAGGUUUAGUGCUUUUUUAAAGGAAAGUUGUCCCAGGAUUCAUCCUAAAGAAAGCAAAAGUUAAUUCAAUGGAAUUCUCGGGUGCCAA,0.321
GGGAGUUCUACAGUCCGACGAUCGAGCAUUUUGUAAGCUGCCCUCACACUAUAUAAUGGACAAUCUUUAUUCUGUUCUUUAGUAUAACAGCAAGUAUAAUUAUGCCGAGUCCUGCCAUCAUAAGUAUGGAGUAUGGAAUUCUCGGGUGCCAA,0.444
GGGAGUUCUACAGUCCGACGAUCCAGAGCUCAAAGCCCAGGUUCAGGGUAAGAAUUUGUAAUACAGAAGAAGAAAGACUCCCUUCACUUUGCCCUUAACACUUGCCUCUGUUAUCUAAGCUUCGUUAAUAGAUUGGAAUUCUCGGGUGCCAA,0.345
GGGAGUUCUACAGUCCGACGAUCACAGUAGAGAAACACUGUAGUUCACAGACCAUGCAACCGUGUUUCCACGAGAUGUUAUUACAACAAAUGAAGAAUUUUUUUCCUUUUUUUUCAUUUUAAUCUUUUUUGACUGGAAUUCUCGGGUGCCAA,0.426
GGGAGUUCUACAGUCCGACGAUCAAAGUCAGUUAUGAGUCUACCAGACUUUGUUCUGAAAAAUAGAAACAAAACACCUGAUUAAGCUCUUGAGUAUGGCAUAGGAAUUUUUUAGAAGAAUGCAUUCAAGGAUUUGGAAUUCUCGGGUGCCAA,1.52

# Series 3 — method: RNA Bind-n-Seq; molecule type: RNA; matrix: in vitro; concentration: not given; baseline: input RNA pool; reading: higher = stronger binding
# Target: RING finger protein unkempt homolog, zinc fingers 1-6, GST-SBP tag (UNK, Homo sapiens, UniProt Q9C0B0, residues 30-357)
# Chain of UniProt Q9C0B0 (30-357, looked up): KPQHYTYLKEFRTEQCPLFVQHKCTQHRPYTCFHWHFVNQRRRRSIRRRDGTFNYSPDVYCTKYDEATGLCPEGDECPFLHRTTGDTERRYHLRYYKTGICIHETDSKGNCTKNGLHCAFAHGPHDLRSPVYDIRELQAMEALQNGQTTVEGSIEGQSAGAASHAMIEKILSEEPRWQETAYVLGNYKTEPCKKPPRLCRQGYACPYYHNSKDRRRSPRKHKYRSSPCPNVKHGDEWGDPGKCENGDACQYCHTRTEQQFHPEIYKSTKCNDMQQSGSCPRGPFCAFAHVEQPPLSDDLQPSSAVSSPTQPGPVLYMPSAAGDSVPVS
# Setting: RNA with constant flanks, human and mouse sites, ends assumed
Sequence,bound/input enrichment [ratio]
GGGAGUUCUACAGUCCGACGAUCGUCAAAUUCAAACUACAGUACUGUGUAAUUAUGUAUAAAGUUUUUUUAUUUAUUUGAAGUUAGACUAGAUAUACGUUUUUAAAUUUAACAUCUGGCUGGACAGUGUUCUAUUAACUCAUUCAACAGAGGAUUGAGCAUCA,3.24
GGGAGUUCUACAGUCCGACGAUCCUGAUAGUGACUUCCUUACUAUUGCUUCCUGGACUAAACCAACAUGGAAUCAUUUUGAAGUACAUUGGAAUGGCCAAGAGGGAGAUAAACAAACUUCUCAAACAAAAAGAAAAGAAAAACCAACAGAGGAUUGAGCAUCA,0.275
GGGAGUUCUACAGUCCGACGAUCUUUCCCAUUUAGUUUUGGUCUGUUUUUAGAUAGAAUUGGAAGAAACUGUAUAGUUAACAUGAGCUAAGUUGUCAAACCUAUGAUCUGAAGGAACCAAGACAGUAAAGUAUUAUUCGUUUCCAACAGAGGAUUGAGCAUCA,3.77
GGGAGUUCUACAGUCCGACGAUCGAUGAGGUCCAGGCUAUUUGCCAACCUGAGGGAAAUUACUGCCCGUCAGCAGAGUUCAUUUAGCAGACUAUGUAGGCAAUGGAACCAAAGUUUUUUACUUUUUUUUUCCUGUUUUUUUUUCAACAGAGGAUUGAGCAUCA,0.829
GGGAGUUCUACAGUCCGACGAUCCUGGCCCCUGUACAGGUGUCAUUAAUCUGGUUGUAUAUGGGUUAUAAUAUGUAAUACAAAAAGCUCAUUAAGUAUGGGACUACAUGGAGAGGGAAGACAGUUUCAUUUAUAGCUACUGGGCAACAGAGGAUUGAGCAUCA,0.378
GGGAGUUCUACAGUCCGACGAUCCGCAGAACGGAUGAAGCUCUUACACCAAGUGUCACGAGUCUGGAGAACAGAUGGGUUGAGUAGUUGUUCUUAUAAAUUAGUAUCUGUGGAACACAAUCCUUUAUAUAUCAACAUCACAGUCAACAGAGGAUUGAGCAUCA,5.25
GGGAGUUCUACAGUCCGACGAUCAAUUCACAGAAGCACAAUUUUGCCCUUUGCGAGACAUUGUUGCCUCUAUCUAGUCCUACAAGUAGGGUUUUGCAUACUGUGUUUGCCCCUAGGGUUGUCAGUGCAUCAGAAAUACUUCUACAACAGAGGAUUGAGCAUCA,0.181
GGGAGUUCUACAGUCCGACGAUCCAUGCACACAAGUCCCCCUACUGCUGCCCGGAGUGUGGGGUCCUCUGCCGCUCUGCCUACUUCCAGACCCAUGUAAAGGAGAAUUGCCUGCACUAUGCCCGCAAGGUGGGCUACAGGUGCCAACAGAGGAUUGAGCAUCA,0.188

# Series 4 — method: protein binding microarray; molecule type: double-stranded DNA, one strand shown; matrix: in vitro; concentration: not given; baseline: not given; reading: higher = stronger binding
# Target: Histone acetyltransferase KAT6A, winged helix 1, GST fusion (KAT6A, Homo sapiens, UniProt Q92794, residues 1-85)
# Setting: 8-mer, flanks averaged, mean of 2 arrays, mostly near background
# Residues (chain): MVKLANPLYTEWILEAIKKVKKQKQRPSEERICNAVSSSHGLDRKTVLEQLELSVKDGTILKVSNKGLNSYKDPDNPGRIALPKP
Sequence,E-score
TAAGCGGA,0.00717
GGTCGCAC,0.247
AAGGCGTA,-0.0705
AACCTCTA,0.0336
ACAACTCG,-0.149
CACCGTGA,0.0716
CGACAGAA,0.0679
CATCTGCA,-0.158
AAGGGCGC,0.187
CAACTTAA,-0.19
CCGCACCC,0.267
ATGCGAAG,0.0161
CATTCCAA,-0.0402
TAATAATA,-0.0585
AACCAGCG,0.0773
GAAGCTCA,-0.213
AATAGAGC,-0.134

# Repeated from above (series 4):
Sequence,E-score
AAGGGCGC,0.187
CAACTTAA,-0.19
CCGCACCC,0.267
ATGCGAAG,0.0161
CATTCCAA,-0.0402
